Experimental data pooled from the literature.
Each line is one published result; not all experiments were run side by side. ± marks the error that the study gave.

Molecule	target or system	assay	system	conditions	how to read	quantity	value
gymnodimine A	nicotinic acetylcholine receptor (Torpedo marmorata)	binding		methanol standard, with: biotin-α-bungarotoxin 80 nM		IC50	74.2 ± 10.8 nM
AEOL 10150		multiplex immunoassay	rat, status epilepticus, piriform cortex	sc, 7 mg/kg every 4 h, 24 h, from 5 min post-SE		IL-6 increase	decreased
13-desmethyl spirolide C	nicotinic acetylcholine receptor (Torpedo marmorata)	binding		with: biotin-α-bungarotoxin		Hill slope	1.09 ± 0.14
NC12CC3CC(CC(C3)C1)C2	Influenza A virus	viral replication, plaque size reduction	MDCK, A/Swine/Minnesota/34-0818/2011 (H1N2)			EC50	< 1000 nM
C[C@H](NP(=O)(Nc1ccn([C@H]2CS[C@@H](CO)O2)c(=O)n1)N[C@@H](C)C(=O)OCc1ccccc1)C(=O)OCc1ccccc1	COLO 320	cell proliferation		72 h		IC50	> 250000 nM
pinnatoxin G	nicotinic acetylcholine receptor (Torpedo marmorata)	binding		with: biotin-α-bungarotoxin		Hill slope	0.65 ± 0.1
CSCC[C@@H]1NC(=O)[C@H](CC(C)C)NC(=O)[C@H](CCCNC(=N)N)NC(=O)[C@H](CO)NC(=O)[C@@H]2CSSC[C@@H]3NC(=O)[C@H](CO)NC(=O)CNC(=O)[C@H]([C@@H](C)O)NC(=O)[C@H](CSSC[C@H](N)C(=O)N[C@@H](CCCCN)C(=O)NCC(=O)N[C@@H](CCCCN)C(=O)NCC(=O)N[C@@H](C)C(=O)N[C@@H](CCCCN)C(=O)N2)NC(=O)[C@H](CSSC[C@@H](C(N)=O)NC(=O)[C@H](CCCCN)NC(=O)CNC(=O)[C@H](CO)NC(=O)[C@H](CCCNC(=N)N)NC3=O)NC(=O)[C@H](CC(=O)O)NC(=O)[C@H](Cc2ccc(O)cc2)NC1=O	Staphylococcus aureus					MIC	> 500 µM
Nc1ccc([As]2SCCS2)cc1	DLD-1	cell viability, MTS				IC50	6900 ± 1810 nM
Pillar[6]MaxQ		host-guest binding, isothermal titration calorimetry	20 mM sodium phosphate buffer	pH 7.4, with: fentanyl		Kd	9.8 nM
Nc1ncnc2c1ncn2[C@@H]1O[C@H](COP(=O)(O)OP(=O)(O)OP(=O)(O)O)[C@@H](O)[C@H]1O	nicotinamide mononucleotide adenylyltransferase R133A, His-tagged	substrate				kcat	26 min⁻¹
COc1cccc(C(=O)N2CCN(C(=O)COc3cccc(C)c3)CC2)c1OC	PC-3	qPCR, item: INK4A/ARF		500 µM, 12 h	reference: DMSO	mRNA level increase	~60%
pinnatoxin A	nicotinic acetylcholine receptor (Torpedo marmorata)	binding		Pecten maximus extract 25 mg/mL, with: biotin-α-bungarotoxin		IC50	78.3 ± 15.3 nM
C[C@H](NP(=O)(Nc1ccn([C@H]2CS[C@@H](COP(=O)(N[C@@H](C)C(=O)OCc3ccccc3)N[C@@H](C)C(=O)OCc3ccccc3)O2)c(=O)n1)N[C@@H](C)C(=O)OCc1ccccc1)C(=O)OCc1ccccc1	HeLa	cell proliferation		3 d		IC50	≥ 250000 nM
13,19-didesmethyl spirolide C	nicotinic acetylcholine receptor (Torpedo marmorata)	binding		methanol standard, with: biotin-α-bungarotoxin 80 nM		IC50	3.1 ± 1.23 nM
C#CC(=O)Nc1ccc([As]2SCCS2)cc1	HCT-116	cell viability, MTS				IC50	530 ± 200 nM
Cc1cc(/C=C/C#N)cc(C)c1Oc1nc(NC2CCN(Cc3ccc(P(C)(C)=O)cc3)CC2)nc2ccsc12	Human immunodeficiency virus 1		MT-4, wild type IIIB		reference: CC50 over EC50	selectivity index	66900
CN1CC[C@]23c4c5ccc(O)c4O[C@H]2[C@@H](O)C=C[C@H]3[C@H]1C5		antinociception, hot plate at 52 °C	C57BL/6J male mice	subcutaneous		ED50	10.2 mg/kg
20-methyl spirolide G	nicotinic acetylcholine receptor (Torpedo marmorata)	binding		methanol standard, with: biotin-α-bungarotoxin 80 nM		IC50	25.6 ± 10.8 nM
O=C([O-])c1ccc[n+]([C@@H]2O[C@H](COP(=O)(O)O)[C@@H](O)[C@H]2O)c1	nicotinamide mononucleotide adenylyltransferase R133A, His-tagged	substrate			reference: R133A over wild type	kcat decrease	30 fold
